Experimental data gathered from unrelated publications.
A part holds a random share of what one study measured. Changes are numbered by the printed parent chain.

Block 1
Target: TAR DNA-binding protein 43, full length, His tag (TARDBP, Homo sapiens, UniProt Q13148, residues 1-414)
Technique: RNA Bind-n-Seq
Form: RNA
Sample: in vitro
Tested at: 20 nM
Setting: 6-mer, flanks averaged, single round
Together with: 150 mM KCl
Relative to: input library
Reading: higher = stronger binding
`ACACCG` — result for “6-mer enrichment (R)”: 0.747.
For `GAGGCG`, “6-mer enrichment (R)” read 3.81.
For `CUCCCG`, “6-mer enrichment (R)” read 0.65.
Under “6-mer enrichment (R)”, `CCUAUU` is recorded as 0.608.
For `UGUUUU`, “6-mer enrichment (R)” read 0.774.
Under “6-mer enrichment (R)”, `UUAGCG` is recorded as 0.855.
For `UGCGUG`, “6-mer enrichment (R)” read 1.64.
Under “6-mer enrichment (R)”, `UCUCGC` is recorded as 0.586.

Block 2
Target: Probable WRKY transcription factor 50, DNA-binding domain (WRKY50, Arabidopsis thaliana, UniProt Q8VWQ5, residues 99-173)
Technique: DNA-protein interaction ELISA
Form: double-stranded DNA, one strand shown
Sample: in vitro, bacterial lysate
Tested at: not given
Setting: whole dsDNA probe, crude lysate protein
Relative to: highest signal in screen
Reading: higher = stronger binding
Residues (chain): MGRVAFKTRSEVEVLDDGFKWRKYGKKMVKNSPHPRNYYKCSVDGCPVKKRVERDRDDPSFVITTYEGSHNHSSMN
With `AAAAAATGTCGGCTGTTAGGATATCGAAAA` the relative absorbance was 10.7 % of maximum.
`AAAAAATGGTCGTCGTACTCGTGGTCAAAA` has a relative absorbance of 60.5 % of maximum.
The relative absorbance of `AAAAAATTTGCTCTTTTGGTTTTCACAAAA` is reported as 16.1 % of maximum.
With `AAAAAATACATTTGACTTTGGGTTTCAAAA` the relative absorbance was 81.9 % of maximum.
`AAAAAATTTCTATTTCATCTTTGCCCAAAA` gave a relative absorbance of 48.2 % of maximum.
`AAAAAATTCAGAGCTTCGAGGTTCCGAAAA` gave a relative absorbance of 14.6 % of maximum.
With `AAAAAACTCCCTCTCCTCTGTCTTCCAAAA` the relative absorbance was 31.1 % of maximum.
`AAAAAATTTGGTCTTCGTCCTCGCTTAAAA` has a relative absorbance of 43.6 % of maximum.

Block 3
Target: Hepatocyte nuclear factor 3-alpha (Foxa1, Mus musculus, UniProt P35582, residues 1-468, full length assumed)
Technique: EMSA with sequencing
Form: double-stranded DNA, one strand shown
Sample: in vitro
Tested at: 10 and 20 nM
Setting: whole designed probe, mean of two concentrations, ends assumed
Relative to: negative control set to 0
Reading: higher = stronger binding
Construct (chain): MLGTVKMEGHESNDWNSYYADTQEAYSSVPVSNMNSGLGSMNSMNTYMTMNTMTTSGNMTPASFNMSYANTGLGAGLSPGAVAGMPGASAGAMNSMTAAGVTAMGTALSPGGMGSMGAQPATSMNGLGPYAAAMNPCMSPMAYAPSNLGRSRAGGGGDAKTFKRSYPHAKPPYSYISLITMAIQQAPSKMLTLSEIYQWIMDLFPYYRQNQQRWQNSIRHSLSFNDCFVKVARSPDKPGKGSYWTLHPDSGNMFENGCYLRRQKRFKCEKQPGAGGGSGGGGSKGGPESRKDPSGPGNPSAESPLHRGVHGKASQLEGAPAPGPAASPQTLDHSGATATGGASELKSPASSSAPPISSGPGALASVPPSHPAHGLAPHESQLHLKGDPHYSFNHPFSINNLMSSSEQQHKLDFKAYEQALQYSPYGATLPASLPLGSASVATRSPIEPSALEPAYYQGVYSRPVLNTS
For `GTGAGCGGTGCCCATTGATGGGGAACCCCTCATCCTGGGTGTCGGGGTGGGAGGTGTTCTCATCATGAATGGGAGGCGTACCCAGATCCAGCGTGACTCACCATTAACCAAACCAGAGTGTAAACAAATGGCTGTGTGTCACACCATAATCGACATAGCAAGATATGATACATGCCAGGAGAGAAAAAGAAAGTGCTGATGGAAAAATAATCTCATTAGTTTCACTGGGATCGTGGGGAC`, “normalised bound fraction” read 0.279 ratio.
`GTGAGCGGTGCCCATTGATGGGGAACATGTGGCTTTAGCTGTGTCCCAAAGATTTTGGTATGTGTTTTCTCTGTTTTCACTTATTTCAAAGAACTTTTAAATTTCTGCCTTGATATCATTGTTTACTCAAAAGTTGTTGAGGAGCCAGTTGTTTAATTTCTATGCATTTCTGTGGTTTTGAGAGATCTTCTTGGTATTGTTTTCTGTTTTTATTCTATTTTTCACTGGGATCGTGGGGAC` — result for “normalised bound fraction”: 0.39 ratio.
For `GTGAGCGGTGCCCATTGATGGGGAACTAAGTTTGTCTTTTCTAATGAAGAAAAAAAAGAGTTTGAGAAAGGAACGATACCAATCTATGATGATCCATCAGCATCGCATCCCAGCCTGTGTAAACATGAAGTGAAAGGGACAGGGAGAAGCCAGGGCCAGAAAGTGCATTTAAACCAGATGGTTCAGTCACAGCGCTGGCCTTAAGTGTCTTACCCAGCATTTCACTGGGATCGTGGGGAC`, “normalised bound fraction” read 0.394 ratio.
`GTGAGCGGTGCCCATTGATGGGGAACAAGAGCCCGGCGGTAGGGCCATATGTTCCCCATAATCTCCAAAGCCGTCACTTCAATTAGAGCCTCCCCTGAGTTCTAATGCCCAATCCTGAGTAATCTAGCCGCTCTGAAAGAAGAACTCGGTTTCCAATTAAAAGTGTACTAACATTTCTCCTTCCTTTAATTCCCGCGGAGCAAAGCCCCGCGCGGGCGGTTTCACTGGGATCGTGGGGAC`: “normalised bound fraction” -0.0795 ratio.
`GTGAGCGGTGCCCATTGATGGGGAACAAAGTGAGACATGCTTTATGCTTTAAGAGGGCACACATTGGAGTGTGATAAGCTTCAACTTGGGGAGAATGAGCTCTACTCTGCTCTATTTCTGTTTACTTTGTACTAAATAATTAGACAATGGCCAACATGGTCTGAAAAAAGTCAAGTAAAGAGATATCTTTCTAGCCTGAAACAAAATATTCTTAGATTTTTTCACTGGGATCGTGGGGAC` — result for “normalised bound fraction”: 0.484 ratio.
Under “normalised bound fraction”, `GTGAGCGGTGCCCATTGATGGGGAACGAGCAGGTGGGATAGGGCACCAGCTTTGTGATTATGCTGGTTAGATTACAGTTGTGTCCTGCCACTGTTAATAATGGCAAATGAAACAAACAATGTAATCTCAGACTTCTTTTTGTTTTTCATAATCTGAGAAGGTGGTTAGTTCTTAGGTCAGGTCAGTTTCACCAATCTAAGGAGTTTTTTTCCTATTTTTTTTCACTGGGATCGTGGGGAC` is recorded as 0.0698 ratio.
Under “normalised bound fraction”, `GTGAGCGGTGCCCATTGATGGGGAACTCTTTTTCAGTATGACCATGCTTCCCACAGTTAAAATAAGCTCCAGGAAATGGAGTATTTCTTTTATCCACTCTCAGTTCTGCCATTGCCTGTGCCATCTAAGTAGCTTTATGCAGATTACCTCCGATACCATCACAGGCCTTGATATAATCAACTAAATGTGCTTTCCCTCTAATAGGTCACAGAGCAGCCTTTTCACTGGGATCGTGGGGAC` is recorded as -0.0718 ratio.
Under “normalised bound fraction”, `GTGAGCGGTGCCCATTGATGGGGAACCACTCATAGTCTTGCTATCCTTCATATACAGAGATGACCCTCCCAAGCCTAAAATCAACAGGGGGAGGCATAGAGCTGTCCTTCTGGCTCTAATGTTTGCTTTACCATCATCTTAGTCCAGCATTCCACGCCCATGTGAGAGCCAGTGTGAAGTGAGCAGAATATGGCATAAGTATGGAGTCATACATCCTTATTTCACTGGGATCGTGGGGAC` is recorded as 0.361 ratio.

Single results of other studies
Starting sequence: viral docking peptide; KKVKRRLFETREL; partner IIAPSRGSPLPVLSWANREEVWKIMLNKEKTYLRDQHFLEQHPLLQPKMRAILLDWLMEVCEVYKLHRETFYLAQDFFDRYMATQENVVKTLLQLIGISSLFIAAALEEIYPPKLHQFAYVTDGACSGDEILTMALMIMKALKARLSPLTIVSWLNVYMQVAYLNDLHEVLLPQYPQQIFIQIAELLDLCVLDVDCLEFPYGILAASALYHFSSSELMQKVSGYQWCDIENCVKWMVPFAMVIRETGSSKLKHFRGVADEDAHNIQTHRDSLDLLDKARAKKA
`KKVKRRLFETAEL [R11A]`: “normalised enrichment score” 6.51 (CCNE1, cyclin fold, Cln2 fusion (human); yeast growth competition, sequencing; yeast; strong parent motif; relative to: not given, higher = stronger binding).

For quick reference, copied from above (single results of other studies):
`KKVKRRLFETAEL [R11A]`: “normalised enrichment score” 6.51 (CCNE1, cyclin fold, Cln2 fusion (human); yeast growth competition, sequencing; yeast; strong parent motif; relative to: not given, higher = stronger binding).
